Measured values pooled from the literature.
Protocols differ between the studies behind these lines. “And” joins repeats or separate records; there may be more than shown. ± marks the error that the study gave.

Compound | test | system | conditions | scale | measurement | result
COc1c(C)cnc(Cn2cc(C#CCCOP(=O)(O)O)c3c(Cl)nc(N)nc32)c1C | RECIST | human | 96 mg/m2 | – | stable disease duration | 19 months
CCN(O)N=Nc1ccc(S(=O)(=O)Nc2onc(C)c2C)cc1 | carrageenan-induced paw edema | Wistar rat | oral, 100 mg/kg, 1 h after carrageenan, added: carrageenan 1% subplantar | higher = more edema | paw edema volume | 5.73 ± 1.02 a.u.
C[C@H]1C[C@H]2CSC(N)=N[C@@]2(c2nc(NC(=O)c3ccc(OC(F)F)cn3)cs2)CO1 | measured: Aβx-40 | healthy adults, plasma | 540 mg single dose, 6 h post-dose | baseline: placebo | percent change from baseline | -63.3%
COc1cccc2c1C(=O)c1c(O)c3c(c(O)c1C2=O)C[C@@](O)(C(=O)CO)C[C@@H]3O[C@H]1C[C@H](N)[C@H](O)[C@H](C)O1 | cell viability, MTT | normal colonocytes, rat | 72 h | – | IC50 | 701 ± 43 nM
CCCN(O)N=Nc1ccc(S(=O)(=O)Nc2nccs2)cc1 | carrageenan-induced paw edema | Wistar rat | oral, 100 mg/kg, 1 h after carrageenan, added: carrageenan 1% subplantar | higher = more edema | paw edema volume | 6.39 ± 1.12 a.u.
CC(C)C[C@H](NC(=O)[C@@H](Cc1c[nH]c2ccccc12)NC(=O)[C@H](Cc1ccc(O)cc1)NC(=O)[C@H](CO)NC(=O)[C@H](Cc1c[nH]c2ccccc12)NC(=O)[C@H](Cc1c[nH]cn1)NC(=O)[C@@H]1CCC(=O)N1)C(=O)N[C@@H](CCCNC(=N)N)C(=O)N1CCC[C@H]1C(=O)NCC(N)=O | Tanner staging | Chinese overall, central precocious puberty | intramuscular, 22.5 mg day 1, month 6, month 6 | baseline: baseline | stable pubic hair stage | 92.4%
CC(C)NCC(O)c1ccc(O)c(O)c1 (stereo not shown) | – | ventricular cardiomyocytes, C57BL/6 mouse | dose not given, 0.804 s | – | sarcomere length | 1.62 µm
Cn1cc(Nc2nccc(-c3ccc4c(c3)CN(C3COC3)CC[C@H]4NC(=O)c3cn(C(C)(C)C)nn3)n2)cn1 | measured: Glioblastoma Multiforme Signaling | splenic B cells, mouse | in vivo, 30 mg/kg, IgD-activated B cells | baseline: vehicle, positive = activation | pathway activation z-score | 2.67
C=CCn1c(=O)c2cnc(Nc3ccc(N4CCN(C)CC4)cc3)nc2n1-c1ccc2c(n1)[C@@](O)(CC)CC2 | immunohistochemistry | mouse, OVCAR-3 xenograft, tumour | 100 mg/kg, dosed 5 days | – | time to γH2AX return to baseline | ≤ 72 h
COc1nnc2ccc(N3CCC(c4ccc(OCCN5CCN(C)C(=O)[C@H]5C)cc4)CC3)nn12 | – | human patients | 5 mg twice daily, 1.5-fold above baseline, monotherapy and combination cohorts | – | time above HEXIM1 threshold | 2.93 h
OC(CCN1CCCCC1)(c1ccccc1)C1CC2C=CC1C2 (stereo not shown) | resting-state EEG | healthy elderly humans | oral, 4 mg, eyes open, LS mean | – | EEG Alpha2-power Fz-Cz | 1.9 µV²
CC(=O)N(C)[C@H]1CCN(C(=O)c2cnc3c(c2)C[C@](C)(c2ccc(F)cc2)N3)C1 | vanin activity, measured: pantothenic acid | humans, whole blood ex vivo | dose not given, after dosing | – | time to maximal inhibition | ~1 h
COc1ccccc1[C@H](Cn1c(=O)n(C(C)(C)C(=O)O)c(=O)c2c(C)c(-c3ncco3)sc21)OC1CCOCC1 | – | human | 20 mg, post-treatment | – | serum leptin | 4.78 ± 2.93 ng/mL
NCC(=O)Nc1cncc(-c2nn3c(=O)cc(N4CCNCC4)nc3s2)c1 | ADP-induced platelet aggregation, light transmission aggregometry | human, stable CAD on aspirin, ex vivo platelets | subcutaneous, 0.05 mg/kg, 30 min post-dose, median value, added: ADP 20 µM | – | inhibition | 72.4%
CN[C@@H]1COc2c(S(=O)(=O)NC(=O)Nc3c4c(cc5c3CCC5)CCC4)cnn2C1 | measured: IL-1β | human participants, whole blood ex vivo | 450 mg single dose, 4 h, added: LPS/ATP | baseline: baseline | inhibition | 99%
O=C(O)CNC(=O)Cc1ccccc1 | – | ventricular cardiomyocytes, C57BL/6 mouse | dose not given, 0.564 s | – | sarcomere length | 1.63 µm
N#Cc1ccc2c(c1)[C@H]1CCCN(C(=O)c3ccc4[nH]cnc4c3)[C@H]1C2 | – | human clinical trial, female | oral, 240 mg once daily, at last treatment | – | androstenedione level | 5.43 nmol/L
Cc1cc(C)c(CNC(=O)c2cc(Cl)c3c(c2C)O[C@@](C)([C@H]2CC[C@H](N(C)C)CC2)O3)c(=O)[nH]1 | IWG 2007 criteria | human, relapsed/refractory PTCL not otherwise specified | dose not given | – | best overall response PD | 31%
N[C@@H](CC(=O)N1CCn2c(nnc2C(F)(F)F)C1)Cc1cc(F)c(F)cc1F | – | type 2 diabetes patients on metformin, fasting plasma | oral, 100 mg once daily, 28 weeks | – | triglycerides | 176 mg/dL
C[C@@H](O)CCOC(=O)C[C@@H](C)O | measured: C20:4 acylcarnitine | human, plasma | 60 min, log2-transformed values | – | metabolite level | -7.4 ± 0.69 µmol/L

Compound | test | system | conditions | scale | measurement | result
COc1cc(-c2ccccc2)ncc1C(=O)Nc1ccc2c(=O)[nH]c(-c3ccc(C(C)(C)O)cc3)nc2c1 | RNA-seq GSEA, measured: FALLER_STEM_MOUSE | organoids, small intestinal, Apc Q1405X, mouse | dose not given, knockout organoids | baseline: DMSO, direction not given | normalized enrichment score | -2.17
O=C1c2ccncc2C(=O)c2c1[nH]c1ccccc21 | decreased | rat, female, monocrotaline PAH model, heart right ventricle | intravenous, 1 mg/kg every 48 h, days 17-27 | baseline: monocrotaline plus saline | RV cardiomyocyte cross-sectional area | decreased
COc1ccc(NC(=O)c2ccc(-n3cc(CNc4nc(OC)nc(OC)n4)nn3)cc2)cc1 | cell viability, MTT | normal colonocytes, rat | 72 h | – | IC50 | 116 ± 1.53 nM
COc1cc(Nc2ncc3c(n2)-c2ccc(Cl)cc2C(c2c(F)cccc2OC)=NC3)ccc1C(=O)O | – | mouse, NB-EBc1 neuroblastoma xenograft | oral, 10.4 mg/kg, day 7 | baseline: vehicle | relative tumour volume T/C | 1.05
c1ccc(-c2n[nH]cc2-c2ccnc3ccccc23)nc1 | kinase binding, competitor, MIB/MS competition, measured: IKS1 | Candida albicans cell lysate | 10 µM | baseline: DMSO | log2 fold change | 1.56
CCCN(O)N=Nc1ccc(S(=O)(=O)Nc2onc(C)c2C)cc1 | carrageenan-induced paw edema | Wistar rat | oral, 100 mg/kg, 1 h after carrageenan, added: carrageenan 1% subplantar | higher = more edema | paw edema volume | 5.39 ± 0.93 a.u.
CC#CC(=O)N[C@H]1CCCN(c2c(F)cc(C(N)=O)c3[nH]c(C)c(C)c23)C1 | measured: IgA | human | 3 mg once daily, day 21 | baseline: baseline | serum immunoglobulin | -6.2 % change
Cc1cn(-c2ccc3n(c2=O)CCN([C@@H](C)[C@@H]2CC[C@H](c4cc(F)c(Cl)cc4C(F)(F)F)O2)C3=O)cn1 | – | human subjects, CSF | 360 mg once daily for 14 days, 336 h | baseline: baseline, placebo-adjusted | CSF total Aβ change | -4.5%
COc1cc2cc(-c3ccc(CC(=O)Nc4cc(C(C)(C)C(F)(F)F)no4)cn3)cnc2cc1OC | RECIST v1.1 | human RET-altered solid tumours | 75 mg, phase I pooled | – | best overall response CR | 0%
Cc1n[nH]c2ccc(-c3cc(OC[C@@H](N)Cc4ccccc4)cnc3-c3ccoc3)cc12 | kinase binding, competitor, MIB/MS competition, measured: RIM11 | Candida albicans cell lysate | 1 µM | baseline: DMSO | log2 fold change | -0.891
Cc1noc(NS(=O)(=O)c2ccc(N=NN(O)c3ccccc3)cc2)c1C | carrageenan-induced paw edema | Wistar rat | oral, 100 mg/kg, 4 h after carrageenan, added: carrageenan 1% subplantar | higher = more edema | paw edema volume | 4.41 ± 0.61 a.u.
Cc1c(NC(=O)c2cccnc2)c(=O)n(-c2ccccc2)n1C | histology | Dmd C3333Y mice, gastrocnemius | dose not given | – | centrally nucleated fibres | 66% and 62% and 47% and 64% and 53%
CC[C@@H]1[C@H](F)C(=O)N[C@@H]1COc1nccc2cc(C(N)=O)c(OC)cc12 | ATP-site probe binding, ActivX profiling, measured: PKD1, PKD2 | THP-1 cell lysate | 0.2 mM, Lys2 site | – | inhibition | -8.9%
N#Cc1ccc2c(-c3ccncc3)c(-c3ccc(F)cc3)nn2c1 | kinase binding, competitor, MIB/MS competition, measured: CEK1 | Candida albicans cell lysate | 10 µM | baseline: DMSO | log2 fold change | 0.718
Cc1cccc(N(O)N=Nc2ccc(S(=O)(=O)Nc3cc(C)on3)cc2)c1 | carrageenan-induced paw edema | Wistar rat | oral, 100 mg/kg, 1 h after carrageenan, added: carrageenan 1% subplantar | higher = more edema | paw edema volume | 5.83 ± 0.77 a.u.
Cc1cc(F)cc2c(CCC(=O)N[C@@H]3C(=O)NC[C@H]3O)c(-c3ccc(F)cc3)[nH]c12 | – | mice, APOL1 G2, single copy | day 0, before treatment, added: IFNγ plasmid injection | – | UACR | 19.5 µg/mg and 9.55 µg/mg and 23.9 µg/mg and 19.1 µg/mg and 32.4 µg/mg
CO[C@H]1CC[C@H](N2C(=O)CNc3ncc(-c4ccc(C(C)(C)O)nc4)nc32)CC1 | flow cytometry | stimulated B cells, human, blood | 30 mg single dose, 24 h, mean | baseline: baseline | pS6RP change from baseline | 8.6%
Cc1cccc(N(O)N=Nc2ccc(S(=O)(=O)Nc3onc(C)c3C)cc2)c1 | carrageenan-induced paw edema | Wistar rat | oral, 100 mg/kg, 1 h after carrageenan, added: carrageenan 1% subplantar | higher = more edema | paw edema volume | 5.3 ± 0.91 a.u.
COc1ccc(-c2cncc(N[C@@H](C)c3cccc(NC(=O)c4cncc(C)c4)c3)n2)cc1OC | measured: rno-miR-33-5p | rat SU5416/hypoxia model, lung | dose not given, unit not given | baseline: SU5416/hypoxia vehicle | delta delta Ct | 1.37
C[C@H](Oc1ccc(Br)cc1-c1ccon1)C(=O)O | MVRC latency | human, tibialis anterior muscle | 100 mg, SAD | – | difference from placebo | -0.207 ms

Excerpt of the above:
Compound | test | system | conditions | scale | measurement | result
COc1cc(-c2ccccc2)ncc1C(=O)Nc1ccc2c(=O)[nH]c(-c3ccc(C(C)(C)O)cc3)nc2c1 | RNA-seq GSEA, measured: FALLER_STEM_MOUSE | organoids, small intestinal, Apc Q1405X, mouse | dose not given, knockout organoids | baseline: DMSO, direction not given | normalized enrichment score | -2.17
Cc1cc(F)cc2c(CCC(=O)N[C@@H]3C(=O)NC[C@H]3O)c(-c3ccc(F)cc3)[nH]c12 | – | mice, APOL1 G2, single copy | day 0, before treatment, added: IFNγ plasmid injection | – | UACR | 19.5 µg/mg and 9.55 µg/mg and 23.9 µg/mg and 19.1 µg/mg and 32.4 µg/mg
CCCN(O)N=Nc1ccc(S(=O)(=O)Nc2nccs2)cc1 | carrageenan-induced paw edema | Wistar rat | oral, 100 mg/kg, 1 h after carrageenan, added: carrageenan 1% subplantar | higher = more edema | paw edema volume | 6.39 ± 1.12 a.u.
